Assay results of several laboratories.
Protocols differ between the studies behind these lines. Several values in a cell are separate wells, animals, samples, runs or records. ± marks the error that the study gave. Converted amounts (≈) assume the structure as drawn.

Structure (SMILES) | target or system | assay | test system | setting | how to read | quantity | result
c1ccc(-c2n[nH]cc2-c2ccnc3ccccc23)nc1 | VPS15 (Candida albicans) | kinase binding, MIB/MS competition | Candida albicans lysate | 10 µM | reference: DMSO | log2 fold change | -0.48
COc1ccccc1-c1ccncc1C(=O)Nc1nnc(OCc2ccc(Cl)cc2)s1 | MDA-MB-436 |  |  | 12 µM |  | colony count | 13 and 5.5 and 13.5
C=CC(=O)Nc1cccc(Cn2ncc3cnc(Nc4cnn(CCOC)c4)nc32)c1 | BRSK1 human | binding, KINOMEscan |  | 100 nM | lower = stronger binding | percent of control | 100%
COc1cc(O)ccc1CCC(c1ccc(O)cc1)c1cc2c(c(C)c1O)OC(c1ccc(O)cc1)CC2 (mixture of isomers) |  |  | human blood | 10 µM, together with: A23187 |  | PGE2 level | 26 ± 6 pg/mL
C=CC(=O)N1[C@@H](c2ccc3c(c2)OCO3)c2[nH]c3ccccc3c2C[C@H]1C(=O)N1CCN(C)CC1 | human cyclin E1 N112C-3xFLAG:CDK2 | co-IP with TMT proteomics, measured: PUF60 |  | concentration not given, Q9UHX1 | reference: wild type DMSO | relative co-enrichment | 132%
CCN(CC)CC(=O)Nc1cccc(-n2cc(-c3ccc4ccc(-c5cn(-c6cccc(NC(=O)CN(CC)CC)c6)nn5)cc4c3)nn2)c1 | RCC4 | PCR angiogenesis array, measured: TIMP3 |  | 5 x IC50, 2 h, normoxia | reference: untreated | fold regulation | 1.02 fold
CNS(=O)(=O)Nc1nccc(Cc2c(C)c3ccc(Oc4ncccc4F)cc3oc2=O)c1F | NCI-H446 | cell viability |  | 7 days |  | IC50 | > 1 µM
C=C(NC(=O)c1csc(-c2nc3c(cc2O)-c2nc(cs2)C(=O)NC(C(C)O)C(=O)NC(=C(C)OC)c2nc(cs2)C(=O)NC2c4nc(cs4)C(=O)NC(COC(=O)c4c5c6c(cccc6n4O)COC(=O)C(OC4CC(C)(O)C(N(C)C)C(C)O4)C2OC5)c2nc-3cs2)n1)C(N)=O (stereo not drawn) | Streptococcus pneumoniae | broth microdilution | penicillin-resistant isolates |  |  | MIC90 | 0.0156 µg/mL (≈ 0.0109 µM)
COc1cc2c(NC3CCN(C(C)C)CC3)cc(N3CCOCC3)nc2cc1OCCCN1CCCC1 |  | TMT quantitative proteomics, measured: ENO1 | 5xFAD mice, hippocampus | dose not given |  | normalised protein abundance | 0.0512 and 0.0239 and 0.0477 and -0.00632 and -0.00935 and 0.0285 and 0.0158 and 0.0352
Cc1ncsc1-c1ccc(C(C)NC(=O)C2CC(O)CN2C(=O)C(NC(=O)CCCCCCCCCCN2CCCC(Nc3ncc(Cl)c(Nc4ccccc4S(=O)(=O)C(C)C)n3)C2)C(C)(C)C)cc1 (stereo not drawn) | 22Rv1 | RNA-seq, measured: ZNF653 mRNA |  | concentration not given | reference: DMSO | log2 fold change | -1.27
COC1CN([C@H]2CC[C@H]([C@@]3(C)Oc4c(Cl)cc(C(=O)NCc5c(SC)cc(C)[nH]c5=O)c(C)c4O3)CC2)C1 |  | RNA-seq, measured: SPATA6 | human, whole blood | dose not given, 24 h | reference: pretreatment baseline | log2 fold change | 1.28
Nc1ncc(-c2cc(-c3cnn(CC(F)(F)F)c3)ncc2F)nc1C(=O)NC1CNCC(F)C1 (stereo not drawn) | CDK4 | KINOMEscan |  | 1 µM | reference: DMSO control | remaining binding | 86%

A few entries again:
Structure (SMILES) | target or system | assay | test system | setting | how to read | quantity | result
COc1ccccc1-c1ccncc1C(=O)Nc1nnc(OCc2ccc(Cl)cc2)s1 | MDA-MB-436 |  |  | 12 µM |  | colony count | 13 and 5.5 and 13.5
